Measured values gathered from unrelated publications.
A part holds a random share of what one study measured.
Chain of UniProt P10721 (whole entry, unmodified, looked up): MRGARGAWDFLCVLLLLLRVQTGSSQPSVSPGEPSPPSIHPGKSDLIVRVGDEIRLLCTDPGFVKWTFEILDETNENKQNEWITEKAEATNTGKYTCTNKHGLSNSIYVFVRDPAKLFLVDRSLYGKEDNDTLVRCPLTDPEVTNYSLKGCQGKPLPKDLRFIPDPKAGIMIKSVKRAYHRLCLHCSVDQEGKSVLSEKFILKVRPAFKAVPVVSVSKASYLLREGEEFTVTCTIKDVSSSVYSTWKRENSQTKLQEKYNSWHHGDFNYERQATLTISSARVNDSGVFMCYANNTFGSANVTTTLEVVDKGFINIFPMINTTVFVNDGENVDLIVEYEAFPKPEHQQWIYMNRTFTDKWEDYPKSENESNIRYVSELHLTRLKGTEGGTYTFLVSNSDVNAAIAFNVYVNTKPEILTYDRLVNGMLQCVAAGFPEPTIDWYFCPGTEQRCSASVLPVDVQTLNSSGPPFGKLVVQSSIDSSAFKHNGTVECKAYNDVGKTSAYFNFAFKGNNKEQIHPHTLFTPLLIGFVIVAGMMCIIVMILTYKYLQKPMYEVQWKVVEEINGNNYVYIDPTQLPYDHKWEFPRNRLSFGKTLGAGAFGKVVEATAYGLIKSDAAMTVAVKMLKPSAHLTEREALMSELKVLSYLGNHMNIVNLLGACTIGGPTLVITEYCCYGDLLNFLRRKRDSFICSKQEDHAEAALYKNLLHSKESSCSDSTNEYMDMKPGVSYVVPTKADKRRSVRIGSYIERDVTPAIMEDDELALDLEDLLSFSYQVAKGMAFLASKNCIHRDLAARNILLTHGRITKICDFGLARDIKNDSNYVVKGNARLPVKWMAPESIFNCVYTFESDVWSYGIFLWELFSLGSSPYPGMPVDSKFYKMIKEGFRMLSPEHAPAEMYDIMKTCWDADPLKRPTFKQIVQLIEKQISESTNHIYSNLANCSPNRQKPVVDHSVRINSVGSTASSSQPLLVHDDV
Chain of UniProt Q8TDC3 (whole entry, looked up): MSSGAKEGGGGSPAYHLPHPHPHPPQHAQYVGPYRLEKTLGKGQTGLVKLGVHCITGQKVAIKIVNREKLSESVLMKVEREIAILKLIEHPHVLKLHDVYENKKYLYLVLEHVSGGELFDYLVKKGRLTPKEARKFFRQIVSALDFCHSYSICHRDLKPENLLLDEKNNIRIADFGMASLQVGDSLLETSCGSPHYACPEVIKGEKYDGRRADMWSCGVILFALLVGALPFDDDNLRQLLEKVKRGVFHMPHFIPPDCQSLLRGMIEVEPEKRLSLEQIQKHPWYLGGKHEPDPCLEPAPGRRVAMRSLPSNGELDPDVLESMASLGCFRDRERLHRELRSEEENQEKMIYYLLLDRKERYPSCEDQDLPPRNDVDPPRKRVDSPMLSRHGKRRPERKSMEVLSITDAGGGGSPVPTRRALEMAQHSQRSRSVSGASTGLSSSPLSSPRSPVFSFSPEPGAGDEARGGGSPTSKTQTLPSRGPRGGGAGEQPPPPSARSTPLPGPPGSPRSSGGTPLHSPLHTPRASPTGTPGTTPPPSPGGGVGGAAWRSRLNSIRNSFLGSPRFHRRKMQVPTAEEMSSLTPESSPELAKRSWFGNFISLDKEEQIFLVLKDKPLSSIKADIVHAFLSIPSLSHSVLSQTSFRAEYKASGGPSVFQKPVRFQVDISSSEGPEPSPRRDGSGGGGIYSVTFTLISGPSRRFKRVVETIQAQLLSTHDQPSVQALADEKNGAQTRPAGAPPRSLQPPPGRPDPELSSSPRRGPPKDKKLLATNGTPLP
Chain of UniProt P16234 (whole entry, looked up): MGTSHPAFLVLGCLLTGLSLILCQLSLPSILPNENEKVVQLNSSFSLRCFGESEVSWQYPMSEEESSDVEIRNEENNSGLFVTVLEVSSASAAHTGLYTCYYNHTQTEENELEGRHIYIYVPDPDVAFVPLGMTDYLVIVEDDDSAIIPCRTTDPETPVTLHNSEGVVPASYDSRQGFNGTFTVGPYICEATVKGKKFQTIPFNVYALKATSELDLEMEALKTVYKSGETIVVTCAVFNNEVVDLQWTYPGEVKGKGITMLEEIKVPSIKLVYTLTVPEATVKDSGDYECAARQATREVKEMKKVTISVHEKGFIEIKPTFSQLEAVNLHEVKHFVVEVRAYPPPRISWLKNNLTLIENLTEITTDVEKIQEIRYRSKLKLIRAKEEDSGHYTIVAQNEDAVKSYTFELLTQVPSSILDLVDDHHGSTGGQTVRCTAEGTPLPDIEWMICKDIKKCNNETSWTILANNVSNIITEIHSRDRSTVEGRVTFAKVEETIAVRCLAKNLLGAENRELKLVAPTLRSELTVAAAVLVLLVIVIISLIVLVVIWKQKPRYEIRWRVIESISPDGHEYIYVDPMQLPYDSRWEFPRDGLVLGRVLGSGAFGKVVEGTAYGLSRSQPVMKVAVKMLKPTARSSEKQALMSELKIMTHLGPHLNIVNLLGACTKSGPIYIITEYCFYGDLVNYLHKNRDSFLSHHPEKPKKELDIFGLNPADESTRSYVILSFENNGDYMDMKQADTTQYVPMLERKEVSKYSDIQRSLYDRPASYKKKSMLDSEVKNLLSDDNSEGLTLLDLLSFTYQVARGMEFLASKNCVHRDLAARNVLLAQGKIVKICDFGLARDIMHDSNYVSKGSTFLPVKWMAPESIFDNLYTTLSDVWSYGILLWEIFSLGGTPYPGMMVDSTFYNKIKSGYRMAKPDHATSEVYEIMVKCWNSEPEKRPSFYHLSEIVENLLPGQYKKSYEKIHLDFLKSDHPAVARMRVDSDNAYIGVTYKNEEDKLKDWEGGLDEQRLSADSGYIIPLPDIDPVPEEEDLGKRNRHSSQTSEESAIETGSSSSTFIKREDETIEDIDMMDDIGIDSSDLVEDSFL
Chain of UniProt P00519 (whole entry, looked up): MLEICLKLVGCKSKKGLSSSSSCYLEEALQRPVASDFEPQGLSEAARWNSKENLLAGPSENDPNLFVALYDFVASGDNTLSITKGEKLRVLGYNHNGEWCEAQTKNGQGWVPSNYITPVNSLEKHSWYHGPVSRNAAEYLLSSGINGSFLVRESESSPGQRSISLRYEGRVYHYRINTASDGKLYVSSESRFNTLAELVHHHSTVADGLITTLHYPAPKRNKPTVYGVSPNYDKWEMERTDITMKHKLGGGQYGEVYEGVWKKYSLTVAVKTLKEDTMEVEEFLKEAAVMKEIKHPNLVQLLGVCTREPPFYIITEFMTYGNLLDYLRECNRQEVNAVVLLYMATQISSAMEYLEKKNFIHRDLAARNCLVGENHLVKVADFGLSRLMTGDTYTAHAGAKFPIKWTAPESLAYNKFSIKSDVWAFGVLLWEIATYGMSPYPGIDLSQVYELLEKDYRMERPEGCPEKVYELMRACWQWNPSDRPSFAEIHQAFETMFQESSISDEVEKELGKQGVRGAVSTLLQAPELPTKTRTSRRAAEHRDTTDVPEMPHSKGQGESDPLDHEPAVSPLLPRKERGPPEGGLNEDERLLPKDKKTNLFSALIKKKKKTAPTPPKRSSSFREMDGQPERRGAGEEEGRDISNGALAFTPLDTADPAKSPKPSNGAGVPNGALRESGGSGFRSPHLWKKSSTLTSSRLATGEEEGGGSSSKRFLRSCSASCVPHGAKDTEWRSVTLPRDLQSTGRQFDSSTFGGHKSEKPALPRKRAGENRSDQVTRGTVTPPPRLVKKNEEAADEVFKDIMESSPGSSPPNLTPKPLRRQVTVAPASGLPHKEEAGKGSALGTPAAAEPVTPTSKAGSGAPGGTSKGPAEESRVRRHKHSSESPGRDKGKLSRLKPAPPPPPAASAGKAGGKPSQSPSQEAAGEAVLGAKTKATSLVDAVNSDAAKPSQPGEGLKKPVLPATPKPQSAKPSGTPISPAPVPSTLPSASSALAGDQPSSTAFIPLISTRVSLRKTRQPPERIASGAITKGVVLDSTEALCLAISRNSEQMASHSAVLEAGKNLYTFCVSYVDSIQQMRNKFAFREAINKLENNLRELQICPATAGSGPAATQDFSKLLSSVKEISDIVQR
Chain of UniProt Q13043 (whole entry, looked up): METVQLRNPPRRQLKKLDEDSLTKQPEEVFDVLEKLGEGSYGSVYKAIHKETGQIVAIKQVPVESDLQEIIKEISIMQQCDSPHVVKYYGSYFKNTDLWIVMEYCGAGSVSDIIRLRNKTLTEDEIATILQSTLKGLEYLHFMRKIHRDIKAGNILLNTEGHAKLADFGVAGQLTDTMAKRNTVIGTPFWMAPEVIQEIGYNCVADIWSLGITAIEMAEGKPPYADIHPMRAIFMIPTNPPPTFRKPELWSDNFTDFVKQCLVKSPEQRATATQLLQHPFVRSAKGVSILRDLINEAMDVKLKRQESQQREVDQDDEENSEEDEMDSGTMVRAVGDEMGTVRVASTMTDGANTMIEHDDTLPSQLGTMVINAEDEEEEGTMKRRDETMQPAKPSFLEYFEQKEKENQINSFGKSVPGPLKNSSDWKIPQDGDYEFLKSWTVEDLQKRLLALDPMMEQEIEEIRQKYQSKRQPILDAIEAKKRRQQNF
Chain of UniProt O14733 (whole entry, looked up): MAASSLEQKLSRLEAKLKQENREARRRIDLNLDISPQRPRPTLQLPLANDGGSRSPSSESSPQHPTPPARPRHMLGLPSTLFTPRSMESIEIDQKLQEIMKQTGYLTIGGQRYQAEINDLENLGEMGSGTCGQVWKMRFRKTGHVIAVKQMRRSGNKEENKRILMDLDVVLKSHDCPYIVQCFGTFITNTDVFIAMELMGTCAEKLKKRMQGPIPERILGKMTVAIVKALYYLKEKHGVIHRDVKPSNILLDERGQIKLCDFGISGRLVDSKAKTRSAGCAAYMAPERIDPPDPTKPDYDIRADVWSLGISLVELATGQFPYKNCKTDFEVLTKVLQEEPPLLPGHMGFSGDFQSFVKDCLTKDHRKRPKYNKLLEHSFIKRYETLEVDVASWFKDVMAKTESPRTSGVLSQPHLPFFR

Study 1
Target: Interferon regulatory factor 7, full length, phosphomimetic (IRF7, Homo sapiens, UniProt Q92985, residues 1-503, S101K/S471D/S472D/S475D/S476D/S477D/S483D/S484D/S487D)
Method: protein-binding microarray
Form: double-stranded DNA, one strand shown
Sample: in vitro
Concentration: 250 nM
Notes: 60-bp whole probe
Added: salmon DNA 0.4 mg/ml
Baseline: random background probes
Direction: higher = stronger binding
Shared flanks, not repeated: GCCTAGCAC … GTCTTGATTCGCTTGACGCTGCTG
Residues (chain): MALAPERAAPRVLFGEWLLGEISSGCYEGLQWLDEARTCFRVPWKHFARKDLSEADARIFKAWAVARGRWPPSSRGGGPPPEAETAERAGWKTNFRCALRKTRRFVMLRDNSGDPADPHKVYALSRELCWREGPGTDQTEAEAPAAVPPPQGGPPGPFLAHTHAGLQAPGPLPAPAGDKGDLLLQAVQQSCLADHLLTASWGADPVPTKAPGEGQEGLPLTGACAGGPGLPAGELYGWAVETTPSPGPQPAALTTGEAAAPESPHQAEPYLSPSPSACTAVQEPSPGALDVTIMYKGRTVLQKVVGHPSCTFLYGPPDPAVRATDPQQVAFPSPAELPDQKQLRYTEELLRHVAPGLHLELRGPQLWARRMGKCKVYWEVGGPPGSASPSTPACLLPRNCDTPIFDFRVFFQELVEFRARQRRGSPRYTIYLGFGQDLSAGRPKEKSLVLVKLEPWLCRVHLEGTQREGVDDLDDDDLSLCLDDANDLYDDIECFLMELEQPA
Sequence | log fluorescence
CTTGGGCTCTTCTCTGAAGACGTGCTA | -0.732 z-score
GACGATTTCAGTATCTAGACGTGCTAG | 0.216 z-score
TTAGATTTCAGAATGGATTAGTGCTAG | 0.311 z-score
TCATGTTTTGTTTTTCAACTGTGCTAG | 2.5 z-score
TCACTCTTCCTTTACTTACTGTGCTAG | 0.949 z-score
TTAGGTTCCCTTTACCTTTAGTGCTAG | 3.5 z-score
TACGGTTTCGGTATCGGGACGTGCTAG | 10.5 z-score
ATATCTAAAAAGTCTCTGGGAGTGCTA | 1.26 z-score

Study 2
Target: Sal-like protein 4, full length isoform B (SALL4, Homo sapiens, UniProt Q9UJQ4-2, residues 1-616)
Method: universal PBM
Form: double-stranded DNA, one strand shown
Sample: in vitro
Concentration: not given
Notes: 8-mer, flanks averaged, mean of replicates
Direction: higher = stronger binding
Residues (chain): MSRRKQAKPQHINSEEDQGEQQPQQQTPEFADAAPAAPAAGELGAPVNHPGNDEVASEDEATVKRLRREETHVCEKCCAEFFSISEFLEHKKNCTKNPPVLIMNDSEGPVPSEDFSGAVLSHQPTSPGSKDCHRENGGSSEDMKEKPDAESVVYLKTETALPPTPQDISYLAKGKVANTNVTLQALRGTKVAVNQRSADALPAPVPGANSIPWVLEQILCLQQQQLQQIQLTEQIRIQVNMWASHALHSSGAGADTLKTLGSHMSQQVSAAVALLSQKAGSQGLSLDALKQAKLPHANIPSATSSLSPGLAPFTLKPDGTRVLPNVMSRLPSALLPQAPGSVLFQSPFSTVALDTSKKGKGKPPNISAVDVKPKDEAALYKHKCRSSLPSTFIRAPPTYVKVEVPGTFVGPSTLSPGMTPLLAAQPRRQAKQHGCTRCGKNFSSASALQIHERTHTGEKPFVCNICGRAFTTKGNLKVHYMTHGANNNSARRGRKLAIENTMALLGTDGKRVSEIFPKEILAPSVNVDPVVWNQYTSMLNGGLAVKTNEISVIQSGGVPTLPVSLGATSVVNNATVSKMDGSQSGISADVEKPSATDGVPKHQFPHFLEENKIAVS
Sequence | E-score
ACCGTAAA | 0.18
AGTATTCC | 0.0733
AAGGCTGC | -0.21
CTTACGAA | 0.175
AAGGTACA | 0.101
CGGAGGTA | -0.109
GTTCAAAA | -0.0157
CGTGAAGC | -0.194

Study 3
Target: Tyrosine-protein kinase Fgr (FGR, Homo sapiens, UniProt P09769)
Read-out: enzyme activity
Mode: inhibitor
Concentration: 0.5 µM
Baseline: control
Compound | remaining activity [%]
Cc1nc(-c2ccccc2)c(-c2ccncc2)o1 | 89.7
COc1cc2ncnc(Nc3ccc(F)c(Cl)c3)c2cc1OCCCN1CCOCC1 | 70.1
COc1ccc(OC)c2c(=S)c3ccccc3[nH]c12 | 90.8
CO[C@H]1C[C@@H]2CC[C@@H](C)[C@@](O)(O2)C(=O)C(=O)N2CCCC[C@H]2C(=O)O[C@H]([C@H](C)C[C@@H]2CC[C@@H](O)[C@H](OC)C2)CC(=O)[C@H](C)/C=C(\C)[C@@H](O)[C@@H](OC)C(=O)[C@H](C)C[C@H](C)/C=C/C=C/C=C/1C | 94.5
Nc1ccc2ncnc(NCCc3ccc(Oc4ccccc4)cc3)c2c1 | 101
COc1cc2nccc(Oc3ccc(NC(=S)NC(=O)c4ccccc4C)cc3)c2cc1OC | 21.2
CCOC(=O)c1c(C)[nH]c(/C=C2\C(=O)Nc3ccccc32)c1C | 79.3
Oc1ccc(-c2nc(-c3ccncc3)c(-c3ccc(F)cc3)[nH]2)cc1 | 93
Nc1[nH]nc2nc3ccccc3nc12 | 96.3
NCCNc1ncc(C(N)=O)c(Nc2cccc(C(F)(F)F)c2)n1 | 48.7
CN(C)c1ccc(C=C2C(=O)Nc3ccccc32)cc1 | 90
N#CC(C#N)=C(N)/C(C#N)=C/c1ccc(O)cc1 | 98.7
O=S(=O)(c1cccc2cnccc12)N1CCCNCC1 | 90.5
C#Cc1cccc(Nc2ncnc3cc(OCCOC)c(OCCOC)cc23)c1 | 77.6
CC(C)[C@H](CO)Nc1nc(Nc2cc(N)cc(Cl)c2)c2ncn(C(C)C)c2n1 | 15

Study 4
Compound: Cc1noc([C@H]2C[C@@H](c3ccc(C(F)(F)F)cc3)CN(C(=O)N3CCS(=O)(=O)C3)C2)n1
Method: competition with immobilised ligand
Concentration: 1 µM
target | assay | remaining binding [%]
CILK1 (Homo sapiens, UniProt Q9UPZ9) | binding | 62
PIK3CA (Homo sapiens, UniProt P42336, I800L) | cell-free assay | 100
BRSK1 (Homo sapiens, UniProt Q8TDC3) | cell-free assay | 100
NEK10 (Homo sapiens, UniProt Q6ZWH5) | cell-free assay | 84
PRKG1 (Homo sapiens, UniProt Q13976) | cell-free assay | 100
EGFR (Homo sapiens, UniProt P00533, del752-759) | cell-free assay | 84
EIF2AK1 (Homo sapiens, UniProt Q9BQI3) | cell-free assay | 100
Insulin receptor (INSR, Homo sapiens, UniProt P06213) | cell-free assay | 85
TAOK1 (Homo sapiens, UniProt Q7L7X3) | cell-free assay | 100
STK3 (Homo sapiens, UniProt Q13188) | cell-free assay | 100
CDK18 (Homo sapiens, UniProt Q07002) | cell-free assay | 97
Tyrosine-protein kinase ABL1, non-phosphorylated (ABL1, Homo sapiens, UniProt P00519) | cell-free assay | 71
TNIK (Homo sapiens, UniProt Q9UKE5) | cell-free assay | 99
DYRK2 (Homo sapiens, UniProt Q92630) | cell-free assay | 100
FLT3 (Homo sapiens, UniProt P36888, F691L/ITD) | cell-free assay | 100
KIT (Homo sapiens, UniProt P10721, L576P) | cell-free assay | 100
PRKCI (Homo sapiens, UniProt P41743) | cell-free assay | 100
CSNK1A1 (Homo sapiens, UniProt P48729) | cell-free assay | 70
STK4 (Homo sapiens, UniProt Q13043) | cell-free assay | 100
MAP2K7 (Homo sapiens, UniProt O14733) | cell-free assay | 100
STK38 (Homo sapiens, UniProt Q15208) | cell-free assay | 100
KIT (Homo sapiens, UniProt P10721, T670I/V559D) | cell-free assay | 100
TLK2 (Homo sapiens, UniProt Q86UE8) | cell-free assay | 100
PDGFRA (Homo sapiens, UniProt P16234) | cell-free assay | 100
PIK3C2B (Homo sapiens, UniProt O00750) | cell-free assay | 66
